# Measured values pooled from the literature.
# Every numbered part comes from another study and shows a few of its results, in no order. Positions count from the first letter of the parent shown.

# Sample 1
# Target: CREB3L1, bZIP domain (human)
# Technique: DHFR protein complementation
# Sample: yeast
# Setting: single substitutions, most at no-binding floor
# Relative to: wild-type JUN-FOS pair
# Direction: higher = stronger binding
# Parent: JUN, bZIP domain (human); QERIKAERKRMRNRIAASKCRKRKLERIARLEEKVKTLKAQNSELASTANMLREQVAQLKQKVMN; partner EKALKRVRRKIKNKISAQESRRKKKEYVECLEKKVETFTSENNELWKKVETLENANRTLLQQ
Substitution,binding fitness
L38N,-1.48 natural log
K39E,-1.4 natural log
E44G,-1.49 natural log
I28N,-1.21 natural log
K34H,-1.5 natural log
K36G,-1.36 natural log
A49G,-1.41 natural log
I28E,-1.39 natural log

# Sample 2
# Target: CCND3, cyclin fold, Cln2 fusion (human)
# Technique: yeast growth competition, sequencing
# Sample: yeast
# Setting: weak parent motif
# Relative to: not given
# Direction: higher = stronger binding
# Parent: CDC6 docking peptide (human); TLKGRRLVFDNQL
Substitution,normalised enrichment score
L13G,0.116
L7T,0.0729
Q12C,0.0622
L7M,0.109
R5P,0.0293
G4R,0.0809
D10M,0.118
R6M,0.134
R6A,0.0552
N11W,0.17
R5W,0.228
Q12D,0.0797
K3E,0.119

# Sample 3
# Target: Histone acetyltransferase KAT6A, winged helix 1, GST fusion (KAT6A, Homo sapiens, UniProt Q92794, residues 1-85)
# Technique: protein binding microarray
# Molecule type: double-stranded DNA, one strand shown
# Sample: in vitro
# Concentration: not given
# Setting: 8-mer, flanks averaged, mean of 2 arrays, mostly near background
# Relative to: not given
# Direction: higher = stronger binding
# Target sequence (chain): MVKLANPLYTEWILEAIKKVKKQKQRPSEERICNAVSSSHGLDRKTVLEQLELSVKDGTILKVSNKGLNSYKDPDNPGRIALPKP
Sequence,E-score
CATTAGAG,-0.187
GTGTAAAA,-0.129
CCTACTTA,-0.175
ACCAACCC,-0.0689
GGACTACC,0.0407
GTGCTTAA,0.0214
TCCCAACA,-0.172
TTACTCAA,0.00206
AAGAACTA,-0.0295
CCCGTGAG,0.283
CGGGCGGA,0.336
GGTGATCA,-0.14
AATCATTA,-0.113
GTAGTGCA,-0.0181
ACATTGGC,-0.251
GCCCAGAA,-0.173
AAGGCTGT,-0.0844
AGTCTGCC,-0.0934
CAGCTAAG,-0.146
CACAAAAG,-0.189

# Other studies, line by line
Substance,target,test,test system,setting,how to read,endpoint,result
"PhoQ, residues 284 288 289 292 302 303 ALSMDL","PhoP, residues 12 14 15 18 19 LFHKL (Escherichia coli, UniProt P23836)","Sort-seq, refers to: YFP reporter",E. coli,"PhoQ-PhoP variant library, added: 10 µM Mg2+","relative to: high Mg2+ state, higher = stronger signaling",fold induction,0.782
